Published values pooled from the literature.
Parts stem from different laboratories: compare values within a part only. Changes are numbered by the printed parent chain.
Sequence of UniProt O94804 (whole entry, looked up): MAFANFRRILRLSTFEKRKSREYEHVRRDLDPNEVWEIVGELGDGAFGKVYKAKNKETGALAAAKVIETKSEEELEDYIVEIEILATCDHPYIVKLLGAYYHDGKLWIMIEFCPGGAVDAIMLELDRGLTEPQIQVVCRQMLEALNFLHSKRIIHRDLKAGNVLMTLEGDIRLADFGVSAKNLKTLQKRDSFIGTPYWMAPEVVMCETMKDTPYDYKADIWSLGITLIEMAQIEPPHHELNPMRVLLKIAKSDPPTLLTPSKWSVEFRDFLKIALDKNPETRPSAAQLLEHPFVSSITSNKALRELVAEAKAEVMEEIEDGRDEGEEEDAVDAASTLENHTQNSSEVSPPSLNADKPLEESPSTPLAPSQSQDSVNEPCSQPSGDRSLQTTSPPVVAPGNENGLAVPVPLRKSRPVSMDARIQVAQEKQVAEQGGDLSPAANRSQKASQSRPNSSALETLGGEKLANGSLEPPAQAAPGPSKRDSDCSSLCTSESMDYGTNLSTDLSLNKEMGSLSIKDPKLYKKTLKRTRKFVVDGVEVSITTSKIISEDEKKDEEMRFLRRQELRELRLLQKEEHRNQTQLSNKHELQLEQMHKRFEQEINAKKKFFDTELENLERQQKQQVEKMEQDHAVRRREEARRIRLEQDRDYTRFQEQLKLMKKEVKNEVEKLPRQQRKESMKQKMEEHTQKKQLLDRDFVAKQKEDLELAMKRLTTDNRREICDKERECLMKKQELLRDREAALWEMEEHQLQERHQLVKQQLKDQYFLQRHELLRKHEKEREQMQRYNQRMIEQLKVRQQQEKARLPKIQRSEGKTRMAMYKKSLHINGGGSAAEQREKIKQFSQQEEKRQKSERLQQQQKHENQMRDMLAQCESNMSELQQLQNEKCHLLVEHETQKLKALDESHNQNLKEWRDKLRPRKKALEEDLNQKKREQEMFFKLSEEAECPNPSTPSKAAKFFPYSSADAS
Sequence of UniProt P36897 (whole entry, looked up): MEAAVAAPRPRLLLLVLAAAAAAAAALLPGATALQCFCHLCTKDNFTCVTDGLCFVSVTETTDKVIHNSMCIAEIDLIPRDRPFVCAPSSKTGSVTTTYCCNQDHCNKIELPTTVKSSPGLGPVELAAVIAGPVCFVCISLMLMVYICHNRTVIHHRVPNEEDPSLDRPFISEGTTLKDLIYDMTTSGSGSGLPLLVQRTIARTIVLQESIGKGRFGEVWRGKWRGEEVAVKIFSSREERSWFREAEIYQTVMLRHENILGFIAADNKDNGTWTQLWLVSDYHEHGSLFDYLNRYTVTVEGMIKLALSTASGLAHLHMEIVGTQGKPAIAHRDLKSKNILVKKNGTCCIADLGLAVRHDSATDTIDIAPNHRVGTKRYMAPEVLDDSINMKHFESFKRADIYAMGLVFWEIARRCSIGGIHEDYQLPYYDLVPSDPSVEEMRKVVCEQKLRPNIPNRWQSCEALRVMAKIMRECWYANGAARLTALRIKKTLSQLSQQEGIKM

Set 1 — target: inorganic phosphate, free oxyanion; technique: microfluidic competitive inhibition; matrix: in vitro, cell-free expressed; tested at: not given; reading: lower = stronger binding
Notes: derived from inhibition constants, unchanged parent 615000 nM
Starting sequence: PafA, mature enzyme, eGFP fusion (Elizabethkingia meningoseptica, UniProt Q9KJX5); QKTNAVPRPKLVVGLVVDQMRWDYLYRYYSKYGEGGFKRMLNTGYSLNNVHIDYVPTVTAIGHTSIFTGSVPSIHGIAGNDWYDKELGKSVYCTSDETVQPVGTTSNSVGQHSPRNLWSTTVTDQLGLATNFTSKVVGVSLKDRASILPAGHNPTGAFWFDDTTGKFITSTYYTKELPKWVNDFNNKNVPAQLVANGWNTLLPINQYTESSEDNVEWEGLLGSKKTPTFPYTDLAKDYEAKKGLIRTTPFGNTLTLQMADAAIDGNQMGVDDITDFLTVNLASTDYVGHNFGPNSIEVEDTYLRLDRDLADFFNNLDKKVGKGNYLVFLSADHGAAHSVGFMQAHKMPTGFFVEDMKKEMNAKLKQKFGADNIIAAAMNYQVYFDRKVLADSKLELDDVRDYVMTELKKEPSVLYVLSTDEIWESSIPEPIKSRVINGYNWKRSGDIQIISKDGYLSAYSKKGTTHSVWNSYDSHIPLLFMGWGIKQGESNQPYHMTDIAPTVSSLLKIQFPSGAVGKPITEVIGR
Substitution	phosphate dissociation constant [µM]
K225V	608
F313G	451
N182V	657
R400G	596
D371V	607
Q1G	640
F352V	679
P493V	623

Set 2 — host: mouse; matrix: microsomes or S9; tested at: 2 µM; time: 0.5 h
SMILES	remaining compound [%]
Cn1ccn2ncc(C(=O)N[C@H]3COC[C@@H]3N3CCCCC3)c12	56
COc1cc(C(=O)Nc2c(C)cc(Cl)cc2C(=O)NC(C)C)n(-c2ncccc2Cl)n1	> 100
CC(C)(C)c1cc(-n2c(=O)[nH]c3ccccc3c2=O)no1	61.7

Set 3 — effect on: enzyme activity; action: inhibitor; tested at: 0.5 µM; relative to: control
SMILES: COC[C@H]1OC(=O)c2coc3c2[C@@]1(C)C1=C(C3=O)[C@@H]2CCC(=O)[C@@]2(C)C[C@H]1OC(C)=O
target	remaining activity [%]
MAPK9 (Homo sapiens, UniProt P45984)	100
TGFBR1 (Homo sapiens, UniProt P36897)	93.8
STK10 (Homo sapiens, UniProt O94804)	87.3

Set 4 — cell line: HaCaT; tested at: 100 µM; time: 36 h
SMILES	viability [%]
C[C@@H]1CC[C@@]2(OC1)O[C@H]1[C@@H](O)[C@H]3[C@@H]4CC[C@H]5C[C@@H](O[C@@H]6O[C@H](CO)[C@H](O[C@@H]7O[C@H](CO)[C@@H](O)[C@H](O[C@@H]8OC[C@@H](O)[C@H](O)[C@H]8O)[C@H]7O[C@@H]7O[C@H](CO)[C@H](O)[C@H](O[C@@H]8O[C@H](CO)[C@@H](O)[C@H](O)[C@H]8O)[C@H]7O)[C@H](O)[C@H]6O)[C@H](O)C[C@]5(C)[C@H]4CC[C@]3(C)[C@H]1[C@@H]2C	4.43
CC(C)c1cccc(C(C)C)c1O	46.4
NC(=O)CN1CC(O)CC1=O (centres unmarked)	96.6

Excerpt of the above (set 4):
SMILES	viability [%]
NC(=O)CN1CC(O)CC1=O (centres unmarked)	96.6
CC(C)c1cccc(C(C)C)c1O	46.4
